Published values gathered from unrelated publications.
Each numbered part is a random draw from the data of one study; scales do not carry over between parts. “And” joins repeats or separate records; there may be more than shown.
Sequence of UniProt Q06418 (whole entry, looked up): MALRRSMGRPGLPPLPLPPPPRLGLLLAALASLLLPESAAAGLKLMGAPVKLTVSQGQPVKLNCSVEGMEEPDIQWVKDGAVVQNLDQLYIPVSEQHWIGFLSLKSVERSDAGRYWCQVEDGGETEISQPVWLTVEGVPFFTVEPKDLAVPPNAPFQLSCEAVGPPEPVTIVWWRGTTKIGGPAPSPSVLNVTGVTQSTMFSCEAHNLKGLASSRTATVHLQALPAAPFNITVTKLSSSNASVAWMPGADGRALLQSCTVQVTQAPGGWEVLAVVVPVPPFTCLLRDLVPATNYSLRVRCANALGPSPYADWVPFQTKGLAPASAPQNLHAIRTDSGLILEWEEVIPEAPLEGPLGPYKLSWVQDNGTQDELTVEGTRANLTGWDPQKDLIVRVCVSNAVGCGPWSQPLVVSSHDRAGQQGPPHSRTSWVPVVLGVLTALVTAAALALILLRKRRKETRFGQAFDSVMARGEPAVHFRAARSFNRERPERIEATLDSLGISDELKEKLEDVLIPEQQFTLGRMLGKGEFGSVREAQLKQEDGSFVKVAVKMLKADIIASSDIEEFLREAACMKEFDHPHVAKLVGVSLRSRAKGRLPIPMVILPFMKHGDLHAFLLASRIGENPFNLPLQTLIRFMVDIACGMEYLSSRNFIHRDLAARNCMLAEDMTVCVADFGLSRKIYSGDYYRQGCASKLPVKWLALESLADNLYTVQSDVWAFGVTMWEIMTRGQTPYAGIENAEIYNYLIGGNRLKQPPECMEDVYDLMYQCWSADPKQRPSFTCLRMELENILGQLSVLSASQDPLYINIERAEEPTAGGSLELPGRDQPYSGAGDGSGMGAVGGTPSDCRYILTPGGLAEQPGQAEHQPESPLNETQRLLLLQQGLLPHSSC
Sequence of UniProt Q9P286 (whole entry, looked up): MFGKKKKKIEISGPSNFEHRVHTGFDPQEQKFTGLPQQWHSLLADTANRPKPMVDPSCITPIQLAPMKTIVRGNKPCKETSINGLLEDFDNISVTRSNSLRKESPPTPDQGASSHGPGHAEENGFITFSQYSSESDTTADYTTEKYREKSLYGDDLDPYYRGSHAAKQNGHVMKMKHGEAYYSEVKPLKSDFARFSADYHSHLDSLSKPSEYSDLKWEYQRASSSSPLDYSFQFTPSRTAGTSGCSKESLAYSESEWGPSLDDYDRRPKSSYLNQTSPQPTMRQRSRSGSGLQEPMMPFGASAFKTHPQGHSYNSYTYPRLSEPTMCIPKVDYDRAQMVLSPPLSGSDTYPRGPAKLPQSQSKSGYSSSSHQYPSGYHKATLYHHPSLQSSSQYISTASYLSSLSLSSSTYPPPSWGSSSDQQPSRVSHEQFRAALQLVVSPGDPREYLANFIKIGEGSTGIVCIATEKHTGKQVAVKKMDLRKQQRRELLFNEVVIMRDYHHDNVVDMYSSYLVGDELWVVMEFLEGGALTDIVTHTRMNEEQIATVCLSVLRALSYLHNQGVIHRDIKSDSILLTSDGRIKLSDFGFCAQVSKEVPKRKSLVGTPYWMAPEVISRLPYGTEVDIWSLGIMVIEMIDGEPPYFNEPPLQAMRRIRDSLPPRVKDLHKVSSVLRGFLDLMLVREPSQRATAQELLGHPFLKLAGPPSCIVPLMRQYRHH
Sequence of UniProt P31751 (whole entry, looked up): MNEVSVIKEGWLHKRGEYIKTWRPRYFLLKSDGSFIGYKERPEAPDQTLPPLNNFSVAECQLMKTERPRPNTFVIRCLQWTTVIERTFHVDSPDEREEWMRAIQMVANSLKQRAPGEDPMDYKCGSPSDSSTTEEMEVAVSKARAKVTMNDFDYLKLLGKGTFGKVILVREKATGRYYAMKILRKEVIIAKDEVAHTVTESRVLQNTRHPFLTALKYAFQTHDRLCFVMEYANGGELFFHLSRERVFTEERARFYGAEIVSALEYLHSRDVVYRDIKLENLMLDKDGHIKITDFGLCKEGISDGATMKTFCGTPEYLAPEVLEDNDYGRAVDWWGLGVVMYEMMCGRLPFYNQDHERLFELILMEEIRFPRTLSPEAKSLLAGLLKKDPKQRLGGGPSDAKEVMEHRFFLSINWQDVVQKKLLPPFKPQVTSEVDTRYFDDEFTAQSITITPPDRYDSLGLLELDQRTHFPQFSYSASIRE
Sequence of UniProt Q52WX2 (whole entry, looked up): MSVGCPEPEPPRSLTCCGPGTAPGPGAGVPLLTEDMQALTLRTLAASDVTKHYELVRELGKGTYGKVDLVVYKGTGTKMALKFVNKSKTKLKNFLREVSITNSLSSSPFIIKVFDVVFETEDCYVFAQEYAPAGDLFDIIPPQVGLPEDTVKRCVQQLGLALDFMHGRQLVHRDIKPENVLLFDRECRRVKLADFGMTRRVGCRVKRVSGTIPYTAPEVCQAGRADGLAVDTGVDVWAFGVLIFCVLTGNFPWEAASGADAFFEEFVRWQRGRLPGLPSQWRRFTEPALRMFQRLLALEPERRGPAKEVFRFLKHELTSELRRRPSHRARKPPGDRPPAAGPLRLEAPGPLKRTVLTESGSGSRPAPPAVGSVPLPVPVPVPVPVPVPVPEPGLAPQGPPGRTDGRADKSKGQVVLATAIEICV

Sample 1
Target: DNA polymerase theta, ATPase domain (POLQ, Homo sapiens, UniProt O75417)
Sequence of UniProt O75417 (whole entry, unmodified, looked up): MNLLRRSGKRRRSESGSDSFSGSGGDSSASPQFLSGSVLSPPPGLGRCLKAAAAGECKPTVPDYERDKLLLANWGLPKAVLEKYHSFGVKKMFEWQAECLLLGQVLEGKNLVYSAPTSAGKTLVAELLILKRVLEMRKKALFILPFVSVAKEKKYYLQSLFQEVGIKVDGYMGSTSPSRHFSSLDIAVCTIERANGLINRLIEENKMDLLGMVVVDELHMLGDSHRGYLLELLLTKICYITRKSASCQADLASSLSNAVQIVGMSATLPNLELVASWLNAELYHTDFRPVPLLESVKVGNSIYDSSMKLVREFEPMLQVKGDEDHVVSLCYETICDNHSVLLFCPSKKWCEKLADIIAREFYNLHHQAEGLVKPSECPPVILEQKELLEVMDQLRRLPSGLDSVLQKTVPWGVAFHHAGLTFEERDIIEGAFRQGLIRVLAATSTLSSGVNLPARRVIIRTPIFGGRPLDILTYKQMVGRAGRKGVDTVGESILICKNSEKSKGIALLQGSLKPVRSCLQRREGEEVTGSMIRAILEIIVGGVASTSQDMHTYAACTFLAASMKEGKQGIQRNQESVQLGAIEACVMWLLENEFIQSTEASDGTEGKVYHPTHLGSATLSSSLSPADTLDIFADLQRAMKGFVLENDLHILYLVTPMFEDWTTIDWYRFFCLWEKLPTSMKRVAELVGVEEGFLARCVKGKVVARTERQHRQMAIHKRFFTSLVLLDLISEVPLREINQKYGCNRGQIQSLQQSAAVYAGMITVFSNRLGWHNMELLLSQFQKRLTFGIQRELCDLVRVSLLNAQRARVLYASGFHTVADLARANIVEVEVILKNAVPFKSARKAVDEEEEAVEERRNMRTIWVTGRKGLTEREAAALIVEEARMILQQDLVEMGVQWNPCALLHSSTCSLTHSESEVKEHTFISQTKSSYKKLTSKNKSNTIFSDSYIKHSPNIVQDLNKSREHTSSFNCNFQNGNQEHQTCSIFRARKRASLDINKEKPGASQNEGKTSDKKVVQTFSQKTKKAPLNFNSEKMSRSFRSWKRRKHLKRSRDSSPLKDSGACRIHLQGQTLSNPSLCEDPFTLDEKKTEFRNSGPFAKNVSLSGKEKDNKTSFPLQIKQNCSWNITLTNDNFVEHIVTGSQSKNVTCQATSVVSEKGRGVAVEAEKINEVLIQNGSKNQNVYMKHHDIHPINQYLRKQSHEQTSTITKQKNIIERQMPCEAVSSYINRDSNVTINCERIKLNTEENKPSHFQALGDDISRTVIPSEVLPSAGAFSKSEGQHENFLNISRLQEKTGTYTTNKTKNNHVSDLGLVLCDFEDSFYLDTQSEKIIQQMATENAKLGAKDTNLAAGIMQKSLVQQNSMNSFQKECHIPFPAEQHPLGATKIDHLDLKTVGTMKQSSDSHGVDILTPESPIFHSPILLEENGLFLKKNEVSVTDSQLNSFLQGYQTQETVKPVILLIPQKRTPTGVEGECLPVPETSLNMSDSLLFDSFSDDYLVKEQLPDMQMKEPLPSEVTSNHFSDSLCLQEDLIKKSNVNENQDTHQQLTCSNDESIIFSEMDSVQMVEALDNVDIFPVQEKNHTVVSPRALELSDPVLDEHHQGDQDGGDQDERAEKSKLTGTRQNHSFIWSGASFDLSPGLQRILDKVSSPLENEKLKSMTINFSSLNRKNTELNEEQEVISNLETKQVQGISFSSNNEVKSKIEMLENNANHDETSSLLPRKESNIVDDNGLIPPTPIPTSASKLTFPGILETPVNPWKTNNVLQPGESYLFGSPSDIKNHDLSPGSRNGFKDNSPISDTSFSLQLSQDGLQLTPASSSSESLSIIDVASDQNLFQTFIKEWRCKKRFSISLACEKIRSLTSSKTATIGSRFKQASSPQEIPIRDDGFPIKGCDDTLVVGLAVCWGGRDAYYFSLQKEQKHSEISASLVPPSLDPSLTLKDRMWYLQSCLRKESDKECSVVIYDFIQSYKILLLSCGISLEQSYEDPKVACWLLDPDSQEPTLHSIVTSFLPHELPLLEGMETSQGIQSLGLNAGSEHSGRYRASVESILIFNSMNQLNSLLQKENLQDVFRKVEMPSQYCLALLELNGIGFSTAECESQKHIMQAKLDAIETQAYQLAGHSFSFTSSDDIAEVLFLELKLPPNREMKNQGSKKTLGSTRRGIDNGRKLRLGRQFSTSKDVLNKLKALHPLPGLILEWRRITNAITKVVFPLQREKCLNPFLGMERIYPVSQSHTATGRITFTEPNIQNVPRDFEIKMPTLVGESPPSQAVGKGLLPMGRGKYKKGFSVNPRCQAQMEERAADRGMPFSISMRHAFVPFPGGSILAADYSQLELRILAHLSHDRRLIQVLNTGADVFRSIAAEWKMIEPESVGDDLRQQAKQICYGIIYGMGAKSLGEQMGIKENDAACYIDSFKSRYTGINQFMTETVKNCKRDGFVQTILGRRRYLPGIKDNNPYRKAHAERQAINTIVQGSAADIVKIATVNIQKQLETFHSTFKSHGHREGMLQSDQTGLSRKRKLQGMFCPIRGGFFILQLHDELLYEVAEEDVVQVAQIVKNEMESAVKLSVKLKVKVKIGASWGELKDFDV
Read-out: enzyme activity
Action: inhibitor
Tested at: 77 µM
Baseline: untreated
SMILES	remaining activity
CC(N)=NCCCC[C@@H](N)C(=O)O	98.2%
Nc1nc(O)c2ncn(CCC(CO)CO)c2n1	100%
CC(=O)[C@H]1CC[C@H]2[C@@H]3C=CC4=CC(=O)CC[C@@]4(C)[C@@H]3CC[C@]12C	96.5% and 91.8%
c1coc(CNc2ncnc3nc[nH]c23)c1	108%
c1ccc2c(-c3ccncc3)c[nH]c2c1	102%
Clc1ccc(CCC(Cn2ccnc2)Sc2c(Cl)cccc2Cl)cc1 (stereo not drawn)	78.4% and 98.1%
C[N+]1(C)[C@@H]2CC[C@H]1C[C@@H](OC(=O)C(O)c1ccccc1)C2 (stereo partly drawn)	102%

Sample 2
SMILES: CS(=O)(=O)N1CCCC(NC(=O)[C@H](CCC2CCCCC2)NC(=O)c2ccc(CNC(=O)c3cnc4ccccn34)cc2)C1 (stereo partly drawn)
Read-out: cell-free assay
Method: competition with immobilised ligand
Tested at: 0.1 µM
target	remaining binding
TYRO3 (Homo sapiens, UniProt Q06418)	83%
MAP3K9 (Homo sapiens, UniProt P80192)	65%
PAK5 (Homo sapiens, UniProt Q9P286)	97%
NUAK1 (Homo sapiens, UniProt O60285)	88%
TNK1 (Homo sapiens, UniProt Q13470)	100%
STK17A (Homo sapiens, UniProt Q9UEE5)	100%
PLK1 (Homo sapiens, UniProt P53350)	100%
MAP3K20 (Homo sapiens, UniProt Q9NYL2)	79%
FRK (Homo sapiens, UniProt P42685)	77%
NTRK1 (Homo sapiens, UniProt P04629)	100%
SBK1 (Homo sapiens, UniProt Q52WX2)	77%
MAP3K13 (Homo sapiens, UniProt O43283)	74%
MAP3K10 (Homo sapiens, UniProt Q02779)	100%
DCLK1 (Homo sapiens, UniProt O15075)	99%
MAP4K5 (Homo sapiens, UniProt Q9Y4K4)	100%
AKT2 (Homo sapiens, UniProt P31751)	93%
Non-receptor tyrosine-protein kinase TYK2, JH1 (TYK2, Homo sapiens, UniProt P29597)	84%
EGFR (Homo sapiens, UniProt P00533, del746-750)	66%
PRKAA1 (Homo sapiens, UniProt Q13131)	100%
PI4KB (Homo sapiens, UniProt Q9UBF8)	98%
PRKACB (Homo sapiens, UniProt P22694)	100%
LYN (Homo sapiens, UniProt P07948)	100%

Sample 3
Host: mouse
Matrix: microsomes or S9
Tested at: 2 µM
Time: 0.5 h
Compound	remaining compound
Oc1c(-c2ccccc2Br)c(-n2cncn2)nc2ccccc12	96.8%
C[S+]([O-])c1sc(Br)c2c1C(=O)CC(C)(C)C2 (stereo not drawn)	7.74%
COc1cc(=O)[nH]cc1C(=O)N1CCN(C)c2ncccc2C1	88.1%
Cc1c2cnn(CC(=O)NC3CCCc4ccccc43)c(=O)c2c(C)n1Cc1cccc(Cl)c1 (stereo not drawn)	0.442%
CCOc1ccccc1O[C@@H](c1ccccc1)[C@@H]1CNCCO1	32.6%
COc1ccc(C(=O)C2=CN(c3ccc(N(C)C)cc3)c3ccccc3S2(=O)=O)cc1OC	15%
CCc1ccc(N2C(=O)CN(S(C)(=O)=O)CC2(C)C(=O)NCc2ccc(F)cc2)cc1 (stereo not drawn)	6.87%
O=c1cc(-c2ccccc2)[nH]c2nc(CCc3ccccc3)nn12	87.6%
O=S(=O)(NCC(c1ccco1)S(=O)(=O)c1ccccc1)c1ccc(Oc2ccccc2)cc1 (stereo not drawn)	0.387%
CCc1cnc(N2CCN(C)C(C(=O)O)C2)nc1 (stereo not drawn)	> 99%
CN1CC[C@H]2CN(C(=O)c3c4c(nn3C)CCCC4)C[C@H]21	79.3%

Sample 4
Cell line: mouse MPNST tumor cells
Method: high-content nuclear imaging
Item: cell number
Tested at: 10 µM
Time: 12 h
Notes: mean of 2 replicates
Baseline: plate mean
Reading: higher = more cells
SMILES	nuclei count [z-score]
CCCCOc1ccc(CC(=O)NO)cc1	0.601
CCNC(=O)[C@H]1O[C@@H](n2cnc3c(N)nc(NCCc4ccc(CCC(=O)O)cc4)nc32)[C@H](O)[C@@H]1O	0.809
CC(C)S(=O)(=O)N[C@H]1Cc2ccc(-c3ccc(F)nc3)cc2C1	0.216
Cc1nc(C#Cc2cccnc2)cs1	0.739
C#C[C@]1(O)CC[C@H]2[C@@H]3CCC4=C(CCC(=O)C4)[C@H]3CC[C@@]21C	2.73
CC1CNCCN1S(=O)(=O)c1cccc2cnccc12 (stereo not drawn)	2.18
CC[C@H](c1ccc(O)cc1)[C@@H](CC)c1ccc(O)cc1	0.117
CCn1c(=Cc2cccc[n+]2CC)sc(=C2Sc3ccccc3N2C)c1=O	-1.65
